Results gathered from unrelated publications.
Numbers after ± are the reported error.
Organism: Staphylococcus aureus

Substance	test	system	setting	MIC
COc1ccccc1C1CCN(C(=O)Cc2c(F)cccc2F)C1 (centres unmarked)		various strains incl. MRSA		≥ 50 µg/mL
CCCCCCCCn1sc2ccccc2c1=O			panel of 28 strains	0.25 to 2 µg/mL
vancomycin	broth microdilution	ATCC 25923, vancomycin-sensitive		1.25 µg/mL
O=C(O)c1ccc(C=Nc2ncn[nH]2)cc1	broth microdilution	MRSA2, methicillin-resistant	16 to 24 h	> 256 µg/mL
CN(C)c1cc(NC(=O)CNC(C)(C)C)c(O)c2c1C[C@H]1C[C@H]3[C@H](N(C)C)C(O)=C(C(N)=O)C(=O)[C@@]3(O)C(O)=C1C2=O		MRSA 5, Tet M, 50% mouse serum		1 µg/mL
C(=Nc1ncn[nH]1)c1ccncc1	broth microdilution	MRSA2, methicillin-resistant	16 to 24 h	> 256 µg/mL
CCCCCCC/C=C/C(=O)N1C(=O)/C(=C(\O)C2CCNCC2)C(=O)C1CC(C)C (centres unmarked)	microbial growth, broth dilution	MSSA NEWMAN		50 µg/mL
CS(=O)(=O)c1ccc(C=Nc2ncn[nH]2)cc1	broth microdilution	MRSA2, methicillin-resistant	16 to 24 h	> 256 µg/mL
CCc1cc(=O)c2c(OCC(O)CNC(C)(C)C)c3ccoc3c(OC)c2o1 (centres unmarked)	microbial growth, broth dilution	NCTC4163	19 h	> 256 µg/mL
CCCCCCC/C=C/C(=O)N1C(=O)/C(=C(/C)O)C(=O)C1CCC(=O)O (centres unmarked)	microbial growth, broth dilution	MSSA NEWMAN		> 200 µg/mL
CN(C)c1cc(CNCC(C)(C)C)c(O)c2c1C[C@H]1C[C@H]3[C@H](N(C)C)C(O)=C(C(N)=O)C(=O)[C@@]3(O)C(O)=C1C2=O		MRSA 5, Tet M, 50% mouse serum		1 µg/mL
O=[N+]([O-])c1ccc(C=Nc2ncn[nH]2)cc1	microbial growth, broth dilution	ATCC29213		64 µg/mL
N[C@@H]1CON=C1O		MRSA		12.5 µg/mL
N#Cc1ccc(/C=C/c2nc3ccccc3c(=O)n2-c2ccccc2O)cc1	broth microdilution	ATCC 29213 MSSA		0.015 to 4 µg/mL
CC(=O)NC[C@H]1CN(c2ccc(N3CCOCC3)c(F)c2)C(=O)O1	broth microdilution	USA300 LAC	10% human serum	8 µM
O=C(Cc1ccccc1Cl)N1CCC(c2ccccc2)C1 (centres unmarked)		various strains incl. MRSA		12.5 to 25 µg/mL
CC(=O)NC[C@H]1CN(c2ccc(N3CCOCC3)c(F)c2)C(=O)O1	microbial growth, broth dilution	MRSA	clinical isolate	1 µg/mL
CC1(C)S[C@@H]2[C@H](NC(=O)[C@H](N)c3ccccc3)C(=O)N2[C@H]1C(=O)O		methicillin-resistant		183 µM
CC(=O)NC[C@H]1CN(c2ccc(N3CCOCC3)c(F)c2)C(=O)O1		ATCC 43300 MRSA		4 µg/mL
O=C(Cc1ccccc1F)N1CCC(c2ccccc2)C1 (centres unmarked)		various strains incl. MRSA		≥ 50 µg/mL
CCC(CC)c1cc(CCN2CCCN(Cc3ccc(C(F)(F)F)cc3)CC2)nc(-c2ccncc2)n1	microbial growth, broth dilution	ATCC29213		3 to 4 µg/mL
Cc1ccc(C=Nc2nc[nH]n2)c(O)c1	microbial growth, broth dilution	ATCC29213		64 µg/mL
CCc1cc(=O)c2c(OCC3CO3)c3ccoc3c(OC)c2o1 (centres unmarked)	microbial growth, broth dilution	ATCC6538	19 h	> 256 µg/mL
Cc1cc(NS(=O)(=O)c2ccc(N)cc2)no1		trimethoprim-resistant clinical isolates		16 to 500 µg/mL

Substance	test	system	setting	MIC
CN(C)c1ccc(O)c2c1C[C@H]1C[C@H]3[C@H](N(C)C)C(O)=C(C(N)=O)C(=O)[C@@]3(O)C(O)=C1C2=O		MRSA 5, Tet M, 50% human serum		16 µg/mL
COc1cc2cc(-c3cccc(-c4ccc(-c5ccccc5)cc4)c3)[n+](C)c(C)c2cc1OC	broth microdilution	8325-4 MSSA		2.2 µM
CCCCCCC/C=C/C(=O)N1C(=O)/C(=C(/C)O)C(=O)C1Cc1ccc(OC(C)(C)C)cc1 (centres unmarked)	microbial growth, broth dilution	MSSA NEWMAN		< 0.1 µg/mL
CCc1cc(=O)c2c(OCC(O)CN(CC)CC)c3ccoc3c(OC)c2o1 (centres unmarked)	microbial growth, broth dilution	ATCC6538	19 h	> 256 µg/mL
teicoplanin aglycone		ATCC 6538P glycopeptide sensitive	18 h, 37 °C	1 µg/mL
CCCCCCC/C=C/C(=O)N1CC(=O)/C(=C(\C)O)C1=O	microbial growth, broth dilution	MSSA NEWMAN		12.5 µg/mL
CCc1cc(=O)c2c(OCC(O)CNC(C)C)c3ccoc3c(OC)c2o1 (centres unmarked)	microbial growth, broth dilution	ATCC25	19 h	> 256 µg/mL
C(=Nc1ncn[nH]1)c1ccc(-c2ccccc2)cc1	broth microdilution	MRSA2, methicillin-resistant	16 to 24 h	128 µg/mL
CCOC(=O)c1c(N)csc1-c1cn(-c2ccccc2)nc1-c1ccc(C)cc1	broth microdilution	clinical urinary isolate	compound gamma-irradiated 20 kGy	0.124 ± 0.4 µg/mL
O=c1c2ccccc2sn1-c1ccccn1			panel of 28 strains	2 to 15.6 µg/mL
COc1ccccc1C1CCN(C(=O)Cc2ccccc2Cl)C1 (centres unmarked)		various strains incl. MRSA		12.5 to 25 µg/mL
CCc1cc(=O)c2c(OCC(O)CN3CCCCC3)c3ccoc3c(OC)c2o1 (centres unmarked)	microbial growth, broth dilution	NCTC4163	19 h	> 256 µg/mL
CCCCCCn1sc2ccccc2c1=O			panel of 28 strains	0.25 to 62.5 µg/mL
O=C(N[C@H](CO)[C@H](O)c1ccc([N+](=O)[O-])cc1)C(Cl)Cl	microbial growth, broth dilution			< 41 µg/mL
Clc1ccc(C=Nc2ncn[nH]2)cc1	broth microdilution	MRSA2, methicillin-resistant	16 to 24 h	> 256 µg/mL
COc1cc(-c2cc3cc(OC)c(OC)c(OC)c3c(C)[n+]2C)cc(-c2ccc(-c3ccccc3)cc2)c1OC.[I-]	broth microdilution	ATCC 33591 MRSA, broth with 2% NaCl	24 h, 37 °C	1 to 8 µg/mL
Oc1ccc(C=Nc2ncn[nH]2)cc1	microbial growth, broth dilution	ATCC29213		256 µg/mL
gentamicin		JE2 MRSA	18 h, pH 7	0.5 µg/mL
CCCCCCC/C=C/C(=O)N1C(=O)/C(=C(/C)O)C(=O)C1CCCCN (centres unmarked)	microbial growth, broth dilution	MSSA NEWMAN		100 µg/mL
CCc1cc(=O)c2c(OCC(O)CN3CCOCC3)c3ccoc3c(OC)c2o1 (centres unmarked)	microbial growth, broth dilution	NCTC4163	19 h	> 256 µg/mL
CCCCCCC/C=C/C(=O)N1C(=O)/C(=C(\O)CCCC)C(=O)C1CC(C)C (centres unmarked)	microbial growth, broth dilution	MSSA NEWMAN		< 0.1 µg/mL
COc1cc(Cc2cnc(N)nc2N)cc(OC)c1OC	microbial growth, broth dilution	ATCC43300	18 h	0.312 µg/mL
CCOc1ccc2ccccc2c1C(=O)N[C@@H]1C(=O)N2[C@@H]1SC(C)(C)[C@@H]2C(=O)O	broth microdilution	USA300 LAC	1% human serum	1 µM

Excerpt of the above:
Substance	test	system	setting	MIC
CC(=O)NC[C@H]1CN(c2ccc(N3CCOCC3)c(F)c2)C(=O)O1	microbial growth, broth dilution	MRSA	clinical isolate	1 µg/mL
CCCCCCCCn1sc2ccccc2c1=O			panel of 28 strains	0.25 to 2 µg/mL
CCCCCCC/C=C/C(=O)N1C(=O)/C(=C(\O)CCCC)C(=O)C1CC(C)C (centres unmarked)	microbial growth, broth dilution	MSSA NEWMAN		< 0.1 µg/mL
